# Measured values pooled from the literature.
# A part holds a random share of what one study measured. Several values in a cell are separate wells, animals, samples, runs or records. Changes are numbered by the printed parent chain.
# Sequence of UniProt P38919 (whole entry, looked up): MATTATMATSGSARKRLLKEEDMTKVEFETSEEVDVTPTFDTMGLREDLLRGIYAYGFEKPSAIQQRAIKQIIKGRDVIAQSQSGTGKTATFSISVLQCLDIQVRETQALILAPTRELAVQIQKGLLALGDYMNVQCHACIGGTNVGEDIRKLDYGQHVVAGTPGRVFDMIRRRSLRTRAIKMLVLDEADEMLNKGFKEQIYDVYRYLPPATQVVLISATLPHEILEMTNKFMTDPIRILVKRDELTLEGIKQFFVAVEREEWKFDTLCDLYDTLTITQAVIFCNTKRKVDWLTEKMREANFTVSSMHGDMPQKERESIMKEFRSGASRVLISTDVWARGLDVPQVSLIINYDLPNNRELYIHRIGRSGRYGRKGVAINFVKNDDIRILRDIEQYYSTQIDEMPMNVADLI

# Set 1 — target: CCNB1, cyclin fold, Cln2 fusion (human); technique: yeast growth competition, sequencing; sample: yeast; notes: strong parent motif; reference: not given; direction: higher = stronger binding; starting sequence: viral docking peptide; YKVKRRLVFGADD
Substitution,normalised enrichment score
V3H,0.215
L7C,0.0737
V8R,1.33
L7M,0.703
G10W,2.42
K4L,0.527
K2G,4.75
V8M,3.51

# Set 2 — read-out: binding; technique: phage display NGS; form: peptide; notes: panning round 2; reference: input library
# Target: UDP-N-acetylglucosamine--peptide N-acetylglucosaminyltransferase 110 kDa subunit (OGT, Homo sapiens, UniProt O15294)
# Sequence of UniProt O15294 (whole entry, looked up): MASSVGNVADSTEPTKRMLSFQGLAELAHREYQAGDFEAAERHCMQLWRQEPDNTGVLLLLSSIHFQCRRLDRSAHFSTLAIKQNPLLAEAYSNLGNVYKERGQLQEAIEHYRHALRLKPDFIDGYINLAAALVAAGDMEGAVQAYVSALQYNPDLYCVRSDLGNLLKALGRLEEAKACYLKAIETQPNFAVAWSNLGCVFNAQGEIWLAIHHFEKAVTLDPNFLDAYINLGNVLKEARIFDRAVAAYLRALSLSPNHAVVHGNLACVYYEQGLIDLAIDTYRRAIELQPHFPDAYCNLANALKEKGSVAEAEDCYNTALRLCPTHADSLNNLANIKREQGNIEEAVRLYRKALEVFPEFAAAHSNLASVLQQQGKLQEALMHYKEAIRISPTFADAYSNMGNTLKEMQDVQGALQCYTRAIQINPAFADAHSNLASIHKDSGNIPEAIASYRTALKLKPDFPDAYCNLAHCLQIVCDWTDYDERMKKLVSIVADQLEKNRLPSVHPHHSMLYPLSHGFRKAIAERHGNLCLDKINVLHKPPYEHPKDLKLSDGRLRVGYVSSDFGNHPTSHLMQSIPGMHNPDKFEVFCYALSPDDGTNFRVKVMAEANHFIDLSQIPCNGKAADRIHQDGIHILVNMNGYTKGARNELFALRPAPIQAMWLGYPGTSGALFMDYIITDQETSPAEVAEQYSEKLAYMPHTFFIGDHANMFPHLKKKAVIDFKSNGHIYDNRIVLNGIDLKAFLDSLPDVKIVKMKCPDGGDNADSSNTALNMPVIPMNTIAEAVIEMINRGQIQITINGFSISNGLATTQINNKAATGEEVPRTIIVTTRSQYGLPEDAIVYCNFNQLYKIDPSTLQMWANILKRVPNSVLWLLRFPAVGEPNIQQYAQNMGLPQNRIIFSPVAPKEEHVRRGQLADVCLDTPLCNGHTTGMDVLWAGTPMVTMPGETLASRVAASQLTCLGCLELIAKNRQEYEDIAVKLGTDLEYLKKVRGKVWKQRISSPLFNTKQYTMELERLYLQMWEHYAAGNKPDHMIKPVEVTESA
Sequence,minimum log2 enrichment ratio
GVQDYLPMYQISMSN,3.65
ASWSRYHVHDHIHDF,2.38
DLTHEHQIHHHYNRD,2.34
HYFPTYMKHHVNFTD,2.08
AFSPQYQIFVGQTYM,2.04
QFLPSYQIQVDLPHY,2.82
VVESMFMPEYQIVPV,3.05
SYRPMYQIVQPIKQY,1.83

# Single results of other studies
SMILES,tested on,test,system,setting,endpoint,value
COC(=O)[C@@H]1[C@@H](c2ccccc2)[C@]2(c3ccc(OC)cc3)Oc3cc(OC)cc(OC)c3[C@@]1(O)[C@@H]2O,"Eukaryotic initiation factor 4A-III (Homo sapiens, UniProt P38919)","RNA clamping, fluorescence polarization",,"concentration not given, with: FAM-labelled poly r(AG)8 RNA",fluorescence polarization change,-4.2 mP and 0.8 mP and -6.2 mP and -5.6 mP
COc1ccc(-c2c(Nc3ccccn3)[nH]c3c(C4=CCCCC4)c(-c4ccccc4)nn3c2=O)cc1,,,patients with advanced malignancies,"oral, dose not given, treatment-emergent adverse events",grade 3 liver injury incidence,5%
CCC(C)SSc1ncc[nH]1 (centres unmarked),,"dsDNA unwinding, PicoGreen fluorescence",annealed dsDNA substrate,20 µM,effect,-1.1%
CNC(=O)c1ccc(-c2cnn3ccc(C(=O)N(C)c4ccc(Cl)c(C(=O)OC)c4)cc23)cc1,Cryptosporidium parvum,"time-kill, one-phase decay fit",nanoluciferase-expressing,20 µM,half-life of parasite killing,16.1 h
